Measured values pooled from the literature.
Parts stem from different laboratories: compare values within a part only. Positions count from the first letter of the parent shown.

Block 1
Target: BATF2, bZIP domain (human)
Technique: DHFR protein complementation
Sample: yeast
Notes: single substitutions, most at no-binding floor
Baseline: wild-type JUN-FOS pair
Direction: higher = stronger binding
Parent: JUN, bZIP domain (human); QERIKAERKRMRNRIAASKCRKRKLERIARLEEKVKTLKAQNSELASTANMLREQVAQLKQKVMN; partner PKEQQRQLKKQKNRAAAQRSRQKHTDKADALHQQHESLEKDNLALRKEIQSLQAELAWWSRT
Substitution | binding fitness [natural log]
R53V | -1.38
T37G | -0.319
S43R | -0.124
I28H | -0.477
L31Q | -1.19
L38W | -1.4
E44A | -0.366
K39E | -0.335
S43E | -0.0669
Q58S | -0.246
A29V | -0.649
S47H | -0.135
I28V | -0.269
E32W | -1.04
T48P | -1.31
S47V | -0.128
V35F | -0.975
A29L | -0.648

Block 2
Target: Interferon regulatory factor 3, full length, phosphomimetic (IRF3, Homo sapiens, UniProt Q14653, residues 1-427, S386D/S396D/S398D/S402D/T404D/S405D)
Chain of UniProt Q14653 (whole entry, unmodified, looked up): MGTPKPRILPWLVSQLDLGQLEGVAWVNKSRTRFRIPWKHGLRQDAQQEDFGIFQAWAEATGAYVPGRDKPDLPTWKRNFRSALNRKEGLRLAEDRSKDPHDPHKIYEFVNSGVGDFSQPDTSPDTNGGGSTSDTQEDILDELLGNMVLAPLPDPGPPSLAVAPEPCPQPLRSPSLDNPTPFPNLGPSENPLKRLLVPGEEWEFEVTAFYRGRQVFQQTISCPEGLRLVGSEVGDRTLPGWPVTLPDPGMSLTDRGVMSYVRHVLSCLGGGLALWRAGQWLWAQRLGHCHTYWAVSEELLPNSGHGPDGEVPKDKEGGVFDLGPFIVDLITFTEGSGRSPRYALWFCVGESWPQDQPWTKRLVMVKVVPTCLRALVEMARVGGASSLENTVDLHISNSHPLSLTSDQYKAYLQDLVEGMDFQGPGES
Technique: protein-binding microarray
Molecule type: double-stranded DNA, one strand shown
Sample: in vitro
Concentration: 2540 nM top
Notes: 60-bp whole probe
Together with: salmon DNA 0.4 mg/ml
Baseline: random background probes
Direction: higher = stronger binding
Shared flanks, not repeated: GCCTAGCAC … GTCTTGATTCGCTTGACGCTGCTG
Sequence | fitted relative affinity [z-score]
TTAGGGCTGGACACTGGGTTAGTGCTA | -1.23
GACGGTCTCGGTTTCGAGACGTGCTAG | 3.63
GACGGTATCCTACGGCTGACGTGCTAG | 0.672
CTCCCCCTCCCCCTCAGATCGTGCTAG | 0.139
TTAGGTTACGGTTTCGGTTAGTGCTAG | 5.51
AACAGAGGAATGGATACAGAGTGCTAG | 0.696
GACGAAATCAGTTTCGAGACGTGCTAG | 3.35
CCAACTCGCCTTTTTTGTTGGTGCTAG | 2.83
TTAGTTTTCAGTATCGATTAGTGCTAG | 3.37
GACGGACTGGACACTCGGGACGTGCTA | -0.666
CCCCCAATCTCTCTTCACATGTGCTAG | 0.848
TTAGGTCTCGGACTAGGTTAGTGCTAG | 0.0123
TCAAATTAGTGTTTTGCACTGTGCTAG | 0.0921
GACGGTATCAACTTTCGGGACGTGCTA | 1.38
GACGGTTACGGGTATCGGGACGTGCTA | 0.302
TTAGGTATCGGACTGGGATAGTGCTAG | 1.16
TTAGGTTTCGACTAGCGGTTAGTGCTA | 1.76
TTTGGTTTCTGGTTTATTGAGTGCTAG | 3.01
AGGGTCCCGCGATTCGACACGTGCTAG | -0.721

Block 3
Target: CCND3, cyclin fold, Cln2 fusion (human)
Technique: yeast growth competition, sequencing
Sample: yeast
Notes: weak parent motif
Baseline: not given
Direction: higher = stronger binding
Parent: PKMYT1 docking peptide (human); SFEPRNLLSLFED
Substitution | normalised enrichment score
SFMPRNLLSLFED [E3M] | 0.165
WFEPRNLLSLFED [S1W] | 0.136
SFEPRNLLSLFFD [E12F] | 0.0694
SFEKRNLLSLFED [P4K] | 0.0947
SNEPRNLLSLFED [F2N] | 0.0626
RFEPRNLLSLFED [S1R] | 0.0437
SFEPRNWLSLFED [L7W] | 0.0516
PFEPRNLLSLFED [S1P] | 0.0519
SFEPRNMLSLFED [L7M] | 0.0698
GFEPRNLLSLFED [S1G] | 0.101
SFEPRRLLSLFED [N6R] | 0.108
SFEPRSLLSLFED [N6S] | 0.126
SFEPRNLDSLFED [L8D] | 0.0297
SYEPRNLLSLFED [F2Y] | 0.034
SFEPRNLISLFED [L8I] | 0.0921
SKEPRNLLSLFED [F2K] | -0.0226
SREPRNLLSLFED [F2R] | 0.11
SFEPRNLLSLLED [F11L] | -0.0638
SFEPRNLLSTFED [L10T] | 0.0717
SFEPRNLLSKFED [L10K] | 0.035
SFEPRNLGSLFED [L8G] | 0.0612
SFEPRNLLSLFEC [D13C] | 0.0869
SFEMRNLLSLFED [P4M] | 0.19
SFEPRNLTSLFED [L8T] | 0.0995
SFEPYNLLSLFED [R5Y] | 0.128

Block 4
Target: Histone acetyltransferase KAT6A, winged helix 1, GST fusion (KAT6A, Homo sapiens, UniProt Q92794, residues 1-85)
Technique: protein binding microarray
Molecule type: double-stranded DNA, one strand shown
Sample: in vitro
Concentration: not given
Notes: 8-mer, flanks averaged, mean of 2 arrays, mostly near background
Baseline: not given
Direction: higher = stronger binding
Construct (chain): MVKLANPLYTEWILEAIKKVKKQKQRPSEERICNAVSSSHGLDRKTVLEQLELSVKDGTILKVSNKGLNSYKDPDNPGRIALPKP
Sequence | E-score
AGGTACTG | -0.143
TGCTGTAA | -0.197
ATTACTCA | -0.0587
AACGAGGA | -0.25
GCGGGGGA | 0.236
TGCCAGAA | -0.229
AGGGGAGG | -0.193
TAATCCGA | 0.0264
CCCACGTA | -0.241
AGCCCTCC | -0.129
ATAATCCA | -0.0864
GTGATGCA | -0.146
CATTCTCG | -0.0561
AGCTCACA | -0.271
CCCTGAAG | 0.0076
TGCAACCA | -0.285
AATCCCTC | -0.0666
ACTGCCCG | 0.144
CTCCTAAG | -0.0886
CTGGGGAC | -0.295
GTGTTTTA | 0.0579
CCTGCCGC | 0.323
CCATGACC | -0.0283
ATAGTGCA | -0.101
AGAGCAAC | -0.184

Repeated from above (block 4):
Sequence | E-score
CCCTGAAG | 0.0076
TGCAACCA | -0.285
TGCCAGAA | -0.229
GCGGGGGA | 0.236
CCATGACC | -0.0283
ATTACTCA | -0.0587
TGCTGTAA | -0.197
AGCCCTCC | -0.129
